Published values of several laboratories.
Compare with care: the assays were run in different laboratories. Numbers after ± are the reported error.

SMILES	tested on	test	test system	conditions	scale	measurement	value
CC(C)[C@H](NC(=O)CNC(=O)[C@H](CCC(N)=O)NC(=O)[C@H](C)N)C(=O)O			healthy male volunteers	intravenous, 45 mg/kg/h, 2 h, with: LPS 2 ng/kg		subjects with Possibly related AE	0%
CC(C)C[C@H](NC(=O)[C@H](CCCCN)NC(=O)[C@H](CC(C)C)NC(=O)[C@H](CC(C)C)NC(=O)[C@H](CCCCN)NC(=O)[C@H](CCCCN)NC(=O)[C@H](CC(C)C)NC(=O)[C@H](CC(C)C)NC(=O)[C@H](CCCCN)NC(=O)[C@H](CC(C)C)NC(=O)[C@H](CC(C)C)NC(=O)[C@H](CCCCN)NC(=O)[C@H](CCCCN)NC(=O)[C@H](CC(C)C)NC(=O)[C@@H](N)CSSC[C@H](N)C(=O)N[C@@H](CC(C)C)C(=O)N[C@@H](CCC(=O)O)C(=O)N[C@@H](CCC(=O)O)C(=O)N[C@@H](CC(C)C)C(=O)N[C@@H](CC(C)C)C(=O)N[C@@H](Cc1c[nH]cn1)C(=O)N[C@@H](Cc1c[nH]cn1)C(=O)N[C@@H](CC(C)C)C(=O)N[C@@H](CCC(=O)O)C(=O)N[C@@H](CCC(=O)O)C(=O)N[C@@H](CC(C)C)C(=O)N[C@@H](CC(C)C)C(=O)N[C@@H](Cc1c[nH]cn1)C(=O)N[C@@H](Cc1c[nH]cn1)C(N)=O)C(N)=O		chemical stability, HPLC	mouse, serum	8 h		compound remaining	~90.4%
CN(C)CC1CCCCC1(O)c1cccc(O)c1 (centres unmarked)	human P-glycoprotein		Caco-2 TC7 monolayer	100 µM, 3 h, apical pH 6.8, basolateral pH 7.4, with: cyclosporine A 10 µM	relative to: B-to-A over A-to-B	efflux ratio	3
CC[C@H](C)[C@@H]1NC(=O)[C@@H](NC(=O)CNC(=O)c2ccc(F)cc2)CSSC[C@@H]2NC(=O)[C@H](C)NC(=O)CNC(=O)[C@@H]3CCCN3C(=O)[C@@H]3CSSC[C@@H](C(=O)NCC(=O)O)NC(=O)[C@H](Cc4ccc(O)cc4)NC(=O)CNC(=O)[C@H](CC(N)=O)NC(=O)CNC(=O)[C@H](CCCNC(=N)N)NC(=O)[C@H](CSSC[C@H](NC(=O)[C@H](CCCNC(=N)N)NC(=O)[C@H](Cc4ccccc4)NC(=O)[C@H](CC(C)C)NC(=O)[C@H](CC(C)C)NC(=O)[C@H]([C@@H](C)O)NC(=O)CNC(=O)[C@H](CC(C)C)NC(=O)[C@H](CC(=O)O)NC(=O)[C@H]([C@@H](C)O)NC(=O)[C@H](CCCNC(=N)N)NC(=O)[C@H](CCSC)NC(=O)[C@H](CC(N)=O)NC(=O)[C@H](CC(C)C)NC1=O)C(=O)N[C@@H](CCCNC(=N)N)C(=O)N[C@@H](CCCNC(=N)N)C(=O)N[C@@H](CC(=O)O)C(=O)N[C@@H](CO)C(=O)N[C@@H](CC(=O)O)C(=O)N3)NC(=O)[C@H]([C@@H](C)CC)NC2=O [fluorine-18 labelled]		dynamic PET	mouse, BXPC-3 xenograft, heart	intravenous		blood clearance half-life	1.6 min
CC[C@H](C)[C@@H]1NC(=O)[C@H](CCCCN)NC(=O)[C@H](CCCCN)NC(=O)[C@H](Cc2ccc(O)cc2)NC(=O)[C@H](CC(C)C)NC(=O)[C@@H]2CCCN2C(=O)[C@H](C)NC(=O)CNC(=O)CNC(=O)[C@H](CO)NC(=O)CNC(=O)CNC(=O)[C@H](CO)NC(=O)[C@H](CCC(=O)O)NC(=O)[C@H](CC(C)C)NC(=O)[C@H](CC(C)C)NC(=O)[C@H](CCCCN)NC(=O)[C@H](CCCCN)NC(=O)[C@H]([C@@H](C)CC)NC(=O)[C@H]([C@@H](C)CC)NC(=O)[C@H](CCCCN)NC(=O)[C@H](CCCCN)NC(=O)[C@H](Cc2ccc(O)cc2)NC(=O)[C@H](CC(C)C)NC(=O)[C@@H]2CCCN2C(=O)[C@H](C)NC(=O)CNC(=O)[C@@H]2CSSC[C@H](NC(=O)[C@H](CC(C)C)NC(=O)[C@H](CCCCN)NC(=O)[C@H](CCCCN)NC(=O)[C@H]([C@@H](C)CC)NC1=O)C(=O)N[C@@H](CCC(=O)O)C(=O)N[C@@H](CO)C(=O)NCC(=O)N2		hemolysis	uninfected human erythrocytes	1 h		HC10	95.7 ± 3.5 µM
N=C(N)NCc1ccc(C(=O)NCCCC[C@H](NC(=O)CCCCCCC(=O)NCCCC[C@H](NC(=O)N[C@@H](CCC(=O)O)C(=O)O)C(=O)O)C(=O)O)cc1[131I]			SCID mouse, PC-3 xenografts, kidneys	21 h		tissue uptake	3.03 ± 2.96 %ID/g
C[C@@H]1CC[C@H]2[C@@H](C)CO[C@@H]3O[C@@]4(C)CC[C@@H]1[C@]32OO4		refers to: compound	rat, plasma	2.00 ng/mL spiked, 30 days, long-term storage at -80 °C		stability accuracy	102%
Cc1ccc(/C=C/C(=O)O)cc1-c1cc2c(cc1C)C(C)(C)CCC2(C)C			Sprague-Dawley rat, male, plasma	oral, 100 mg/kg, 24 h, sesame oil vehicle		LDL level	7 mg/dL
CSCC[C@@H]1NC(=O)[C@@H]2CSSC[C@H](NC(=O)[C@H](CO)NC(=O)[C@H](C)N)C(=O)N[C@@H](CCCNC(=N)N)C(=O)N[C@@H]([C@@H](C)O)C(=O)N3CCC[C@H]3C(=O)N[C@@H](CCCCN)C(=O)N[C@@H](CC(=O)O)C(=O)N[C@H]3CSSC[C@H](NC(=O)[C@H](CCCCN)NC(=O)[C@H](CCCNC(=N)N)NC(=O)[C@H](CC(N)=O)NC1=O)C(=O)N[C@@H](CCCCN)C(=O)N[C@H]1CSSC[C@H](NC(=O)[C@@H]4CCCN4C(=O)[C@H](CC(=O)O)NC(=O)[C@H](C)NC3=O)C(=O)N[C@@H](C)C(=O)N[C@@H](CCCCN)C(=O)N[C@@H](CCC(=O)O)C(=O)N[C@@H]([C@@H](C)O)C(=O)NCC(=O)N[C@@H](CSSC[C@@H](C(N)=O)NC(=O)[C@H](CCCNC(=N)N)NC(=O)[C@H](CC(N)=O)NC1=O)C(=O)N1CCC[C@H]1C(=O)N[C@@H](Cc1ccc(O)cc1)C(=O)NCC(=O)N[C@@H](CCCCN)C(=O)N2			DA rat pristane-induced arthritis, serum	subcutaneous, 0.1 mg/kg once weekly, 21 days		Phosphorus	3.98 mg/dL
C=Cc1c(C)c2cc3nc(c(CC(=O)O)c4[nH]c(cc5nc(cc1[nH]2)C(C)=C5CC)c(C)c4C(=O)O)[C@@H](CCC(=O)NCCCC[C@H](NC(C)=O)C(=O)N[C@@H](Cc1ccccc1)C(=O)N[C@@H](Cc1ccccc1)C(=O)N[C@H](C(=O)N[C@@H](CC(C)C)C(=O)N[C@@H](CCCCN)C(=O)N[C@@H](CO)C(=O)NCC(=O)N[C@@H](CCC(N)=O)C(=O)NCC(=O)N[C@@H](Cc1ccc(O)cc1)C(=O)N[C@@H](CCCNC(=N)N)C(=O)N[C@@H](Cc1c[nH]c2ccccc12)C(=O)N[C@@H](CC(=O)O)C(=O)N[C@@H](CO)C(=O)N[C@@H](Cc1ccc(O)cc1)C(=O)N[C@@H](CCCNC(=N)N)C(=O)N[C@@H](Cc1c[nH]c2ccccc12)C(=O)N[C@@H](Cc1c[nH]cn1)C(=O)N1CCC[C@H]1C(=O)N[C@@H](CO)C(=O)N[C@@H](CS)C(=O)N[C@@H](C)C(=O)N[C@@H](CS)C(=O)NCC(=O)NCC(=O)N[C@@H](CO)C(=O)N[C@@H](CCCCN)C(N)=O)C(C)C)[C@@H]3C		CCK-8	SK-BR-3, human	1 to 200 µM, 24 h		cytotoxicity	not toxic
CCCCCCCC(=O)NCCCC[C@H](NC(=O)[C@H](Cc1ccccc1)NC(=O)[C@@H](CCCNC(=N)N)NC(=O)[C@@H](N)Cc1ccc(O)cc1)C(N)=O			mouse, CD-1, male, plasma	intravenous, 3 mg/kg		terminal elimination rate constant	0.00915 min⁻¹
CC[C@@H]1C[C@]1(NC(=O)[C@@H]1C[C@@]2(CN1C(=O)[C@@H](NC(=O)[C@@H](NC(=O)[C@@H]1CCCCN1C(C)C)C1CCCCC1)C(C)(C)C)C(C)(C)C21CCC1)C(=O)NS(=O)(=O)N1CCCC1		refers to: Diarrhea	healthy human	oral, 10 mg, with: ritonavir 100 mg		subjects with adverse event	0%
CC[C@H](C)[C@H](NC(=O)[C@H](CC(=O)O)NC(=O)[C@H](CO)NC(=O)[C@H](CCC(N)=O)NC(=O)[C@H](C)NC(=O)[C@H](CC(=O)O)NC(=O)[C@H](CCC(=O)O)NC(=O)[C@H](Cc1c[nH]cn1)NC(=O)[C@H](Cc1ccc(O)cc1)NC(=O)[C@H](C)NC(=O)[C@H](CC(=O)O)NC(=O)[C@H](CCC(=O)O)NC(=O)[C@H](Cc1c[nH]cn1)NC(=O)[C@H](Cc1ccc(O)cc1)NC(=O)[C@H](C)NC(=O)[C@H](CC(=O)O)NC(=O)[C@H](CCC(=O)O)NC(=O)[C@H](Cc1c[nH]cn1)NC(=O)[C@H](Cc1ccc(O)cc1)NC(=O)[C@H](C)NC(=O)[C@H](CC(=O)O)NC(=O)[C@H](CCC(=O)O)NC(=O)[C@H](Cc1c[nH]cn1)NC(=O)[C@H](Cc1ccc(O)cc1)NC(=O)[C@H](C)NC(=O)[C@H](CC(=O)O)NC(=O)[C@H](CCC(=O)O)NC(=O)[C@H](Cc1c[nH]cn1)NC(=O)[C@@H](N)Cc1ccc(O)cc1)C(=O)N[C@H](C(=O)N[C@@H](C)C(=O)N[C@@H](Cc1c[nH]cn1)C(=O)N[C@@H](CC(C)C)C(=O)N[C@@H](CC(C)C)C(=O)O)C(C)C			normal mouse	dose not given		ALT	73 ± 7 IU/L
O=P([O-])([O-])Oc1ccc(-c2cc(=S)ss2)cc1.[Na+].[Na+]		HPLC	PBS	pH 7.4, 25 °C		solubility	~1700 µg/mL
COc1cc2c3c(c4cc(OC)c(OC)cc4c2cc1OC)CN1CCCCC1C3 (centres unmarked)			Sprague-Dawley rat, male	oral, dose not given		AUC(0-inf)	265 ng·h/mL
CN[C@](C)(C[18F])C(=O)O			mouse, muscle	15 min, tumour-bearing		tracer uptake	1.5 %ID/g
O=c1c2cc(Cl)ccc2sc2c(NCc3ccccc3)nc3ccccc3c12			BALB/c nude mice	i.p., 10 mg/kg		body weight gain	4.79 ± 0.53%
CC1=CC=c2ccc3c4c2[N]1[Re](=[C]=O)(=[C]=O)(=[C]=O)([C]#[N+]c1c(C)cccc1C)[N]4C(C)=CC=3.O=S(=O)([O-])C(F)(F)F		cyclic voltammetry	acetonitrile	irreversible reduction		cathodic peak potential	-1.28 V vs SCE
CC(=O)NC(Cc1ccc(Br)c(Cl)c1)C(=O)N[C@@H](C)C(=O)N1CCC[C@H]1C(=O)N1CCC[C@H]1C(=O)N[C@@H](CCC(=O)O)C(=O)N[C@@H](Cc1c[nH]cn1)C(=O)N[C@@H](CO)C(=O)N[C@H](C(=O)N[C@@H](C)C(N)=O)[C@@H](C)OP(=O)(O)O (some centres unmarked)		metabolic stability	human, liver microsomes	1 µM, pH 7.4		half-life	36 min
CC(C)[C@H](NC(=O)CNC(=O)[C@H](CCC(N)=O)NC(=O)[C@H](C)N)C(=O)O			human	intravenous infusion, 45 mg/kg/h, 2 h, relatedness Possibly	relative to: subjects	drug-related adverse events	0%

Excerpt of the above:
SMILES	tested on	test	test system	conditions	scale	measurement	value
C[C@@H]1CC[C@H]2[C@@H](C)CO[C@@H]3O[C@@]4(C)CC[C@@H]1[C@]32OO4		refers to: compound	rat, plasma	2.00 ng/mL spiked, 30 days, long-term storage at -80 °C		stability accuracy	102%
Cc1ccc(/C=C/C(=O)O)cc1-c1cc2c(cc1C)C(C)(C)CCC2(C)C			Sprague-Dawley rat, male, plasma	oral, 100 mg/kg, 24 h, sesame oil vehicle		LDL level	7 mg/dL
